# Results gathered from unrelated publications.
# Lines come from different studies, so protocols differ. Several values in a cell are separate wells, animals, samples, runs or records. Numbers after ± are the reported error.
# ALOX5: Polyunsaturated fatty acid 5-lipoxygenase (ALOX5, Homo sapiens, UniProt P09917)
# Sequence of UniProt P09917 (whole entry, looked up): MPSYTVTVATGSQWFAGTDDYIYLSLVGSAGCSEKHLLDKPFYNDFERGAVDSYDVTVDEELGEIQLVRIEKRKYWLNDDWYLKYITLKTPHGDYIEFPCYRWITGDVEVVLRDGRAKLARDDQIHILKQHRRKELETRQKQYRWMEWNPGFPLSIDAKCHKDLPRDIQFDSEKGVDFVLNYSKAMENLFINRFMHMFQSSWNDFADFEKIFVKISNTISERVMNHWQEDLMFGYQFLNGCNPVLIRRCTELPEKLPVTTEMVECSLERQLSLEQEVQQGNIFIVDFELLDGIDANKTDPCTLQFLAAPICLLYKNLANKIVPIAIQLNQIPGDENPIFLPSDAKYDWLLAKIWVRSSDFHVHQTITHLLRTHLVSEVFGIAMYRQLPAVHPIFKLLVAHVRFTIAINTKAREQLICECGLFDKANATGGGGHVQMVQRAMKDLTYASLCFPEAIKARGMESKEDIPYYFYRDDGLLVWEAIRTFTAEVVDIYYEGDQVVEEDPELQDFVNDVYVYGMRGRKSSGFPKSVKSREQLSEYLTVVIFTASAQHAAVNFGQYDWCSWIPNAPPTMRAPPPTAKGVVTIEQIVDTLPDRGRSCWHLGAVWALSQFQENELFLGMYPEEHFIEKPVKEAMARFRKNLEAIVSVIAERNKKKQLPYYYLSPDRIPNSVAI
# RIPK1: Receptor-interacting serine/threonine-protein kinase 1 (RIPK1, Homo sapiens, UniProt Q13546)
# Sequence of UniProt Q13546 (whole entry, looked up): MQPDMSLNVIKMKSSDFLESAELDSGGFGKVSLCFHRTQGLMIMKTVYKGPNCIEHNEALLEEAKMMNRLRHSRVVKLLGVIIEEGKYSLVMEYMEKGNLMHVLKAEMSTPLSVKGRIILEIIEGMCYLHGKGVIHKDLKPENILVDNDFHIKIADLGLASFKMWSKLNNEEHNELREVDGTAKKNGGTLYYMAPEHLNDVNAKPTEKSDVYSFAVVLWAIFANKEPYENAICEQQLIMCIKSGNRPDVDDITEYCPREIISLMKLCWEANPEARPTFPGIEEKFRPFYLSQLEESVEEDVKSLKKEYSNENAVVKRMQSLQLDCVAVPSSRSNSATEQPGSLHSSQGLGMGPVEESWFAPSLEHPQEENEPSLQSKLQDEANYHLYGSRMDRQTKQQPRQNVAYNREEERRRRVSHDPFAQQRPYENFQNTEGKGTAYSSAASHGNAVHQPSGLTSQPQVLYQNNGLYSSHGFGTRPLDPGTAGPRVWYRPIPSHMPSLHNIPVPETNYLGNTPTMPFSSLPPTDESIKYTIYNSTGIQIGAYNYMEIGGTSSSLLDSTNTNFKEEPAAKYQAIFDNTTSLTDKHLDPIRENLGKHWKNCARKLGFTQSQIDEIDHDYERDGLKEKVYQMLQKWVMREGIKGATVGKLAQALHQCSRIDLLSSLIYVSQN
# MAOB: Amine oxidase [flavin-containing] B (MAOB, Homo sapiens, UniProt P27338)
# Sequence of UniProt P27338 (whole entry, looked up): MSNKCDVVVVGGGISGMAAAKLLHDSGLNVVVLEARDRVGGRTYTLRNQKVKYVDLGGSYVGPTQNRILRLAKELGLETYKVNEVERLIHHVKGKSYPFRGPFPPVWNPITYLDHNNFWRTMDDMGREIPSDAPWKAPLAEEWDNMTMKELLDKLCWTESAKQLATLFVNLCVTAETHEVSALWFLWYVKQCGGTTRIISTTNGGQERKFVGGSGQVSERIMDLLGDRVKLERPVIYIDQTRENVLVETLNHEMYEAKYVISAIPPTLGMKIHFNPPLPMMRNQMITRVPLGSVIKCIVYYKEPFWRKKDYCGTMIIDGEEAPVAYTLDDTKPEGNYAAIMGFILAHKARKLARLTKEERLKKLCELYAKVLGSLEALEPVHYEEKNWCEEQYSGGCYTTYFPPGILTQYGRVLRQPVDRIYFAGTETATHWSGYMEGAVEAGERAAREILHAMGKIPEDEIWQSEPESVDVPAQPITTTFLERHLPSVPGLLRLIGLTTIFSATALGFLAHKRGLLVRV
# Sequence of UniProt Q96KQ7 (whole entry, looked up): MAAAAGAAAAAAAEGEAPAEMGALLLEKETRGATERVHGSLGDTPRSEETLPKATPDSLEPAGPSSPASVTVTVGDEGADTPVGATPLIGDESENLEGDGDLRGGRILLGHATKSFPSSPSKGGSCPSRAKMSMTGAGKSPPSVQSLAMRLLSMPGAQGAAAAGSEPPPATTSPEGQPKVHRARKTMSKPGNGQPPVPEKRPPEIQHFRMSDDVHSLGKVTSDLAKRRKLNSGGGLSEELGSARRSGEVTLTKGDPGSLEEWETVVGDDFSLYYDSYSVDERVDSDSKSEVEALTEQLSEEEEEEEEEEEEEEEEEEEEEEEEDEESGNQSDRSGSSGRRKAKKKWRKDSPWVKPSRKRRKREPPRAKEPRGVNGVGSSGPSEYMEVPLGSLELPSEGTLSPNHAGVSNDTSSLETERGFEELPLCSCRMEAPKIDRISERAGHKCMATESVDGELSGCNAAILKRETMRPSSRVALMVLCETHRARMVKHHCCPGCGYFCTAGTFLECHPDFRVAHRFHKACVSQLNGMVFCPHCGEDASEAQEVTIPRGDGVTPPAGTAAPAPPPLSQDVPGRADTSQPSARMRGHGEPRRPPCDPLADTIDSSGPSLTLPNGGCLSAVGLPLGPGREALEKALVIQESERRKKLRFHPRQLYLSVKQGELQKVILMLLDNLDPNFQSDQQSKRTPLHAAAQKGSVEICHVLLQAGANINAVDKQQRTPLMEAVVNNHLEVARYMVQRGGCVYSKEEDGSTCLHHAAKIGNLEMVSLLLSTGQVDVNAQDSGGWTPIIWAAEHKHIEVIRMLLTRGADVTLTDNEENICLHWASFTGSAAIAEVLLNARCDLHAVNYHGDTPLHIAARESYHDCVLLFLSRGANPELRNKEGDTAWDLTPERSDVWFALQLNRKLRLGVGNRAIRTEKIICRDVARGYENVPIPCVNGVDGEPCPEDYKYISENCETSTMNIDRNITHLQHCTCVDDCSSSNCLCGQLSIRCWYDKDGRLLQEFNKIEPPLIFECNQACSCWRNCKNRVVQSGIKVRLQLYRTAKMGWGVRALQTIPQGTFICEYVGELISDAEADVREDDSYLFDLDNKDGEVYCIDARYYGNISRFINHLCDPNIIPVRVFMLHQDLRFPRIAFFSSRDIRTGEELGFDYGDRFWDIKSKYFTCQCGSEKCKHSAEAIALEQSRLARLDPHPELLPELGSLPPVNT
# Sequence of UniProt Q8R431 (whole entry, looked up): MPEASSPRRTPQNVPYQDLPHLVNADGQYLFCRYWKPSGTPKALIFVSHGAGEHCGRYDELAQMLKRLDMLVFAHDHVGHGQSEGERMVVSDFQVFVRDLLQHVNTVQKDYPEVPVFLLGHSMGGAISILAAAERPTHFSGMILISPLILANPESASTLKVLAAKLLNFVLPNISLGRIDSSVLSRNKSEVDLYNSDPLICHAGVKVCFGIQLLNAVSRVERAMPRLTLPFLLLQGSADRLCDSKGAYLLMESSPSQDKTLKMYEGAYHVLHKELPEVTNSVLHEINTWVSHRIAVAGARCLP
# Sequence of UniProt P26439 (whole entry, looked up): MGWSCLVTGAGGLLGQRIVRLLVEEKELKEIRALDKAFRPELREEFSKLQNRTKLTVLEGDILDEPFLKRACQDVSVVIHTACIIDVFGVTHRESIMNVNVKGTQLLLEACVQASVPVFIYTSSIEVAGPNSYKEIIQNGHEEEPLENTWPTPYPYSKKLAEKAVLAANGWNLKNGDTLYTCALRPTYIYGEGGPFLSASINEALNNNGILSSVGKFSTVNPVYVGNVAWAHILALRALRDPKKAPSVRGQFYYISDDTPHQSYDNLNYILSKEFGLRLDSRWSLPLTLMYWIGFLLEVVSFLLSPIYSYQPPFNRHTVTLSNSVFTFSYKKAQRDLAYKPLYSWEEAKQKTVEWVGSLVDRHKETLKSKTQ
SMILES,target,assay,test system,setting,how to read,remaining activity
CC1(C)CCN(Cc2ccc(C(=O)NC[C@]3(O)CCCN(c4cc(NCc5ccccc5)ncn4)C3)c(O)c2)CC1,"EHMT2 (Homo sapiens, UniProt Q96KQ7)",enzyme activity,,"10 µM, with: 1 µM SAM",,96% and 99%
COc1cc(/C=C/C(=O)CC(=O)CCc2ccc(O)c(OC)c2)ccc1O,"HSD3B2 (Homo sapiens, UniProt P26439)",inhibitor,KGN homogenate,"100 µM, with: pregnenolone substrate",reference: DMSO,≥ 50%
Oc1ccc(C2CCc3ccc(O)cc3O2)cc1 (stereo not shown),ALOX5,product formation,activated human PMNL,"10 µM, with: A23187 plus arachidonic acid",reference: control,67.4 ± 6.2%
O=C(C1CC1)N1CC=C(c2cc3c(Nc4cc5ncsc5cc4F)ncnc3s2)CC1,RIPK1,enzyme activity,,1 µM,reference: untreated,105 ± 2%
Cc1ccc2c(c1)/C(=N/N=C/c1cccc(OCc3ccccc3)c1)C(=O)N2,MAOB,"enzyme activity, inhibitor",,10 µM,,39.1%
O=C1CC(c2ccc(O)cc2)Oc2cc(O)ccc21 (racemic),ALOX5,product formation,activated human PMNL,"10 µM, with: A23187 plus arachidonic acid",reference: control,89.2 ± 6.7%
CC(C)(C)NC(=O)NC1CC=C(c2cc3c(Nc4cc5ncsc5cc4F)ncnc3s2)CC1 (racemic),RIPK1,enzyme activity,,1 µM,reference: untreated,105 ± 6%
O=C1Nc2ccc(F)cc2/C1=N/N=C/c1ccc(OCc2cccc(F)c2)cc1,MAOB,"enzyme activity, inhibitor",,10 µM,,24.5%
CC(C)NC(=O)N1CCC=C(c2cc3c(Nc4cc5ncsc5cc4F)ncnc3s2)C1,RIPK1,enzyme activity,,1 µM,reference: untreated,97 ± 3%
O=C1Nc2ccc(Br)cc2/C1=N/N=C/c1cccc(OCc2ccccc2)c1,MAOB,"enzyme activity, inhibitor",,10 µM,,46.9%
O=C(NC1CC1)N1CCC=C(c2cc3c(Nc4cc5ncsc5cc4F)ncnc3s2)C1,RIPK1,enzyme activity,,1 µM,reference: untreated,100 ± 3%
COc1ccc2c(c1)/C(=N/N=C/c1ccc(OCc3ccccc3)cc1)C(=O)N2,MAOB,"enzyme activity, inhibitor",,10 µM,,66.7%
COc1cc2nnn(C(=O)N3COCC3(C)C)c2cc1OC,"Monoglyceride lipase (Rattus norvegicus, UniProt Q8R431)",inhibitor,rat cerebellum cytosol,100 µM,reference: control,7 ± 1%

# Repeated from above:
SMILES,target,assay,test system,setting,how to read,remaining activity
O=C1Nc2ccc(F)cc2/C1=N/N=C/c1ccc(OCc2cccc(F)c2)cc1,MAOB,"enzyme activity, inhibitor",,10 µM,,24.5%
CC(C)NC(=O)N1CCC=C(c2cc3c(Nc4cc5ncsc5cc4F)ncnc3s2)C1,RIPK1,enzyme activity,,1 µM,reference: untreated,97 ± 3%
